Experimental data collected from several papers.
Parts stem from different laboratories: compare values within a part only.
Chain of UniProt P68400 (whole entry, looked up): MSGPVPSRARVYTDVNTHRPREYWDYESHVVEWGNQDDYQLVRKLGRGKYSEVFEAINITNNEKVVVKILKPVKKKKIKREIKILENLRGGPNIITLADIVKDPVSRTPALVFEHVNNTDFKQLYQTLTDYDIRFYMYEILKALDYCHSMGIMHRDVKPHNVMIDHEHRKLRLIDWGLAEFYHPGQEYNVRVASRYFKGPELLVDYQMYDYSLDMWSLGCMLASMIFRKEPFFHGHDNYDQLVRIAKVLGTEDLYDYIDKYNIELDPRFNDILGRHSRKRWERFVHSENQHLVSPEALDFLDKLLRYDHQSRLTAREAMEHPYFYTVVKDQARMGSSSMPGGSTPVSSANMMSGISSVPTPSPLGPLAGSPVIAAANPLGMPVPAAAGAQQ
Chain of UniProt P10721 (whole entry, unmodified, looked up): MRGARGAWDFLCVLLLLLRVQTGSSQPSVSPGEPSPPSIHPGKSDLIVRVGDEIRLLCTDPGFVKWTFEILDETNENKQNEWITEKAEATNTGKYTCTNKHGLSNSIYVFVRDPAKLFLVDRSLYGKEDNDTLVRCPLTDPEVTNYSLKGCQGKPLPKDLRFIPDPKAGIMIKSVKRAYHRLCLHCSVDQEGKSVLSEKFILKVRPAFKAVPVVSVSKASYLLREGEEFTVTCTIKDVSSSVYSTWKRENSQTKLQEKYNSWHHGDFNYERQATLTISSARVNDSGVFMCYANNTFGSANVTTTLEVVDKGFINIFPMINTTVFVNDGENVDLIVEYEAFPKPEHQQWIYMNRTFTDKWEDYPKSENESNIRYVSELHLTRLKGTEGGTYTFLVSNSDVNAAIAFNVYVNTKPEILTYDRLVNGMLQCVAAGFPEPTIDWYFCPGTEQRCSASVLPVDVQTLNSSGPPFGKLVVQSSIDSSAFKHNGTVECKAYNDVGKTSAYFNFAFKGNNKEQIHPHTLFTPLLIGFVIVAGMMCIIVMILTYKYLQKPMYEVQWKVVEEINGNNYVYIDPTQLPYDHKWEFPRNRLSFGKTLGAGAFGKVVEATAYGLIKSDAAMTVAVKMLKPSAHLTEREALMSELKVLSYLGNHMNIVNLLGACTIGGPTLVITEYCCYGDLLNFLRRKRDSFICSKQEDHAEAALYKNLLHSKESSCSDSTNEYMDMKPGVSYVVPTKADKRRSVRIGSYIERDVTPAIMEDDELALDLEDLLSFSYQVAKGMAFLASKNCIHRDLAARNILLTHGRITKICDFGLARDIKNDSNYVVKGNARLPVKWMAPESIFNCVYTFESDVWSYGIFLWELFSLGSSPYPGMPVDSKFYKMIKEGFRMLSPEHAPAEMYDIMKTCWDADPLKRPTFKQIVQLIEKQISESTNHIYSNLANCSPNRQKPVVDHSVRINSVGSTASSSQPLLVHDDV
Chain of UniProt Q99759 (whole entry, looked up): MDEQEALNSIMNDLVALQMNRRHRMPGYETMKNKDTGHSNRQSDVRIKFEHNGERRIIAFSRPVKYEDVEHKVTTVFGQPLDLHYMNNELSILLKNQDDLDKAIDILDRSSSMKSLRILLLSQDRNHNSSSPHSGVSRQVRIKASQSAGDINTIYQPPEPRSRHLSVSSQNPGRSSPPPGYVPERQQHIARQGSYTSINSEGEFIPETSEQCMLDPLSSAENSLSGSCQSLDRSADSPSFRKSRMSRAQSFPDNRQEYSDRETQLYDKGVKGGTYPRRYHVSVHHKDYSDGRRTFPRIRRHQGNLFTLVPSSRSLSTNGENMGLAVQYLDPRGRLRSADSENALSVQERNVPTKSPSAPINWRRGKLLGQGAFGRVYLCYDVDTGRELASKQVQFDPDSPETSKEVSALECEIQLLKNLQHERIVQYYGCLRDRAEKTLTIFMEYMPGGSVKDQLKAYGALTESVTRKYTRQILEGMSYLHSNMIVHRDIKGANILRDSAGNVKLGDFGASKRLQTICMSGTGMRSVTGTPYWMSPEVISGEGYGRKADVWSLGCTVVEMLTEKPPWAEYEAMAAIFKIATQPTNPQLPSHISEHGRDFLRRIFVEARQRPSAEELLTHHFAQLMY
Chain of UniProt P51617 (whole entry, looked up): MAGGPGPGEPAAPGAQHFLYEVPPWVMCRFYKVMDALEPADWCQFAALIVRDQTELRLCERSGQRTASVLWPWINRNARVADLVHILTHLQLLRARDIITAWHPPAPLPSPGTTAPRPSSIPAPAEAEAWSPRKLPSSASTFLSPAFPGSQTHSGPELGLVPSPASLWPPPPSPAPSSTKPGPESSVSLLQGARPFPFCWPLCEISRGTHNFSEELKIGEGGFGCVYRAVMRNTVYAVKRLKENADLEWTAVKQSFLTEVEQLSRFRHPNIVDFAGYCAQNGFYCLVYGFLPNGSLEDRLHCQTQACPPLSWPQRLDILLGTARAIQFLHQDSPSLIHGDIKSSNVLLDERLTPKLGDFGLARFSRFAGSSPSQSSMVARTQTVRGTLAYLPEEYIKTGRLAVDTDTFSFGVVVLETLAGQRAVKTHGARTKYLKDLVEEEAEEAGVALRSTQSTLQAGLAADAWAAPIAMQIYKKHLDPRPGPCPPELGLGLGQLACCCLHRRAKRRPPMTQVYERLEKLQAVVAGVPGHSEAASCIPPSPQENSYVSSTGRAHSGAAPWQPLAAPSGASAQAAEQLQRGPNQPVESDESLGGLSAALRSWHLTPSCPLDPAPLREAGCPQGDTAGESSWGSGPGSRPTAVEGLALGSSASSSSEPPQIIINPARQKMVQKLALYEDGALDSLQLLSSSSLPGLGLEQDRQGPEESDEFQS
Chain of UniProt Q96J92 (whole entry, looked up): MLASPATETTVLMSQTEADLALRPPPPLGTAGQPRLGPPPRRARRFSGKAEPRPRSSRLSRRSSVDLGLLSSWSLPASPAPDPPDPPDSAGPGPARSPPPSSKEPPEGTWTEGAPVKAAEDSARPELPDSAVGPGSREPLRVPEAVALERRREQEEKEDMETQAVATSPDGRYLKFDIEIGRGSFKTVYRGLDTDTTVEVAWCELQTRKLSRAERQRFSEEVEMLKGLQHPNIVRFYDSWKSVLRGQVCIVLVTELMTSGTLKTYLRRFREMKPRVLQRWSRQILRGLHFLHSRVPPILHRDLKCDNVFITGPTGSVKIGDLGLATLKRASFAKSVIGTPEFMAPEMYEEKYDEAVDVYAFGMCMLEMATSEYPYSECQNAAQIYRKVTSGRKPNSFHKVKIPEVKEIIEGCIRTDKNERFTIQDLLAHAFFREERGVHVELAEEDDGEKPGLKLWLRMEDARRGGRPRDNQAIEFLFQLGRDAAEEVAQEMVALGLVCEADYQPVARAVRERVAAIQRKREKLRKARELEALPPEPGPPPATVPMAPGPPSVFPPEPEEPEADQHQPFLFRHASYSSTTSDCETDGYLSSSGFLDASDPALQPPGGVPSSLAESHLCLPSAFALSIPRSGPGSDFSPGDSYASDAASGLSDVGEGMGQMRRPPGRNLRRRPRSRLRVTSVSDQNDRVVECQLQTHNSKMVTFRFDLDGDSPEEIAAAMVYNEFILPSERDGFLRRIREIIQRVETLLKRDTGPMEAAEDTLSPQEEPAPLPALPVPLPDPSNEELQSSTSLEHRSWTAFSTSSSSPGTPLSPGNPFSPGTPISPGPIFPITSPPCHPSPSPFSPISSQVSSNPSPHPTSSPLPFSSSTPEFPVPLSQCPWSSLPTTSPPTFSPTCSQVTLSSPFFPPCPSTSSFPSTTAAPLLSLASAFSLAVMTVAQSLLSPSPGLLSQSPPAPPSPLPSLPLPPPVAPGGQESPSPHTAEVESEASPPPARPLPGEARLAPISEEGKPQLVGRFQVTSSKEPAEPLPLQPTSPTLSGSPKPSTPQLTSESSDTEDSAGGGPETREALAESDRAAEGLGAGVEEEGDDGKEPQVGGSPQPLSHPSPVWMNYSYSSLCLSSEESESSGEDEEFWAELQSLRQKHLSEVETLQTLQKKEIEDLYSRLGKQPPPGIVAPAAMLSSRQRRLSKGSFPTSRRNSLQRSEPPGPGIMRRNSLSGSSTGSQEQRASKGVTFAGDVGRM
Chain of UniProt Q16566 (whole entry, looked up): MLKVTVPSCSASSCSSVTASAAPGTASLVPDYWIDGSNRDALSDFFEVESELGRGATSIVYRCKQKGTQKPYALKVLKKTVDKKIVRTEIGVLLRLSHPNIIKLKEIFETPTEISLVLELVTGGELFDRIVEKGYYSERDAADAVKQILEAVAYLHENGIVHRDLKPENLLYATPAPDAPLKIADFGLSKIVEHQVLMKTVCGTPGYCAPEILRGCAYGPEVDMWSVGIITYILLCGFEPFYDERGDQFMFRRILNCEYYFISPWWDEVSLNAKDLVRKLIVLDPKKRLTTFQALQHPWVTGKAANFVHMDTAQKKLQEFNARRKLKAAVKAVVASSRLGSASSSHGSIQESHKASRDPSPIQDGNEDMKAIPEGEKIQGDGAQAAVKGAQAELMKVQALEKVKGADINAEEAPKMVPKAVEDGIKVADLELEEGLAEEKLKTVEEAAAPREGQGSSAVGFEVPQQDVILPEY
Chain of UniProt Q13043 (whole entry, looked up): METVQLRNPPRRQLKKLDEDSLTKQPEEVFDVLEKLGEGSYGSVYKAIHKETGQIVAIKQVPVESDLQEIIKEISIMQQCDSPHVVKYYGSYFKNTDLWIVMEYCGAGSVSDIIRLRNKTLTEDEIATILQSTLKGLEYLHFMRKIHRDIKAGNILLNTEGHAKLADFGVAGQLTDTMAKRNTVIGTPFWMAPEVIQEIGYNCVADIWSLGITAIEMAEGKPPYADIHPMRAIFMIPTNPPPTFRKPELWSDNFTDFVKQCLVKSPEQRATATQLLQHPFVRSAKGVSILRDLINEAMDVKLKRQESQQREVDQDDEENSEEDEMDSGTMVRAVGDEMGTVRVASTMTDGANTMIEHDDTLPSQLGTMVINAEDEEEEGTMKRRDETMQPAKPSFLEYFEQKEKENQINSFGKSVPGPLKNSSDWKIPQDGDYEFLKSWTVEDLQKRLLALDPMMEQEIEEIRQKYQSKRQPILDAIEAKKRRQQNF

Set 1
Cell line: Huh-7
Concentration: 10 µM
Time: 24 h
SMILES | viability
CC1(C)S[C@@H]2[C@H](NC(=O)[C@H](NC(=O)N3CCNC3=O)c3ccccc3)C(=O)N2[C@H]1C(=O)O | 98.6%
CC(=O)S[C@@H]1CC2=CC(=O)CC[C@]2(C)[C@H]2CC[C@@]3(C)[C@@H](CC[C@@]34CCC(=O)O4)[C@H]12 | 101%
Clc1ccc(C(c2ccccc2Cl)C(Cl)Cl)cc1 (stereo not shown) | 93.9%
COCC1=C(C(=O)OC(C)OC(=O)OC(C)C)N2C(=O)[C@@H](NC(=O)/C(=N\OC)c3csc(N)n3)[C@H]2SC1 (stereo partly shown) | 97%
CNC[C@H](O)c1cccc(O)c1 | 89.8%
Sc1ncnc2nc[nH]c12 | 93%
OC[C@H]1O[C@@H](O[C@@H]2[C@@H](CO)OC(O)(CO)[C@H]2O)[C@H](O)[C@@H](O)[C@H]1O (mixture of isomers) | 93.3%
Cc1noc(NS(=O)(=O)c2ccc(N)cc2)c1C | 98.3%
CNCC[C@@H](Oc1ccccc1C)c1ccccc1 | 96.6%
O=C(O)CCC(=O)Nc1ccc(S(=O)(=O)Nc2nccs2)cc1 | 100%

Set 2
Compound: CS(=O)(=O)N1CCCC(NC(=O)[C@H](CCC2CCCCC2)NC(=O)c2ccc(CNc3ncnc4c3nnn4-c3ccccc3)cc2)C1 (stereo partly shown)
Technique: competition with immobilised ligand
Concentration: 0.1 µM
target | test | remaining binding
PIK3CG (Homo sapiens, UniProt P48736) | cell-free assay | 85%
NEK1 (Homo sapiens, UniProt Q96PY6) | cell-free assay | 51%
PRKD3 (Homo sapiens, UniProt O94806) | cell-free assay | 100%
TXK (Homo sapiens, UniProt P42681) | binding | 77%
TNK2 (Homo sapiens, UniProt Q07912) | cell-free assay | 91%
IRAK1 (Homo sapiens, UniProt P51617) | cell-free assay | 100%
MET (Homo sapiens, UniProt P08581) | cell-free assay | 68%
KIT (Homo sapiens, UniProt P10721, D816V) | cell-free assay | 100%
CSNK2A1 (Homo sapiens, UniProt P68400) | cell-free assay | 94%
STK4 (Homo sapiens, UniProt Q13043) | cell-free assay | 100%
FGFR2 (Homo sapiens, UniProt P21802) | cell-free assay | 97%
WNK4 (Homo sapiens, UniProt Q96J92) | cell-free assay | 100%
EGFR (Homo sapiens, UniProt P00533, L858R) | cell-free assay | 100%
KIT (Homo sapiens, UniProt P10721, D816H) | cell-free assay | 68%
CAMK4 (Homo sapiens, UniProt Q16566) | cell-free assay | 98%
SIK2 (Homo sapiens, UniProt Q9H0K1) | cell-free assay | 86%
MAK (Homo sapiens, UniProt P20794) | cell-free assay | 100%
Insulin receptor (INSR, Homo sapiens, UniProt P06213) | cell-free assay | 100%
CDK8 (Homo sapiens, UniProt P49336) | cell-free assay | 100%
SBK3 (Homo sapiens, UniProt P0C264) | cell-free assay | 100%
MAP3K3 (Homo sapiens, UniProt Q99759) | cell-free assay | 100%
MAPK12 (Homo sapiens, UniProt P53778) | cell-free assay | 100%

Set 3
Target: Casein kinase II subunit alpha (CSNK2A1, Homo sapiens, UniProt P68400)
Observed: enzyme activity
Action: inhibitor
Concentration: 0.5 µM
Baseline: control
SMILES | remaining activity [%]
N#Cc1c(NC(=O)c2cccc3ccccc23)sc2c1CCCC2 | 101
COc1cc2c(cc1OC)-c1[nH]nc(Nc3cccc(F)c3)c1C2 | 96.6
O=C(Nc1cccc(Nc2nccc(Nc3cccc(C(F)(F)F)c3)n2)c1)C1CC1 | 94.1
O=c1cc(-c2cccc3c2Sc2ccccc2S3)oc(N2CCOCC2)c1 | 97.4
CN(C)C[C@H]1CCn2c(c(C3=C(c4cn(C)c5ccccc45)C(=O)NC3=O)c3ccccc32)C1 | 98.9
CCN(CC)CCNC(=O)c1c(C)[nH]c(/C=C2\C(=O)Nc3ccc(Cl)cc32)c1C | 91.4
CCOc1nc(NC(=O)Cc2cc(OC)ccc2OC)cc(N)c1C#N | 96.9
O=C1c2ccccc2-c2n[nH]c3cccc1c23 | 75
Nc1cccc(-c2cc3c(Oc4cccc(O)c4)ncnc3[nH]2)c1 | 96.8
C[C@@H]1CCN(C(=O)CC#N)C[C@@H]1N(C)c1ncnc2[nH]ccc12 | 104
c1ccc(-c2cnc(Nc3ccc(OCCN4CCCC4)cc3)s2)cc1 | 90.8
Cn1nc2c3c(cccc31)C(=O)c1ccccc1-2 | 90.2
Cc1cn(-c2cc(NC(=O)c3ccc(C)c(Nc4nccc(-c5cccnc5)n4)c3)cc(C(F)(F)F)c2)cn1 | 117
Cc1cc2ncc(-c3ccccc3)nc2cc1C | 102
c1ccc(-c2[nH]ncc2-c2ccnc3ccccc23)nc1 | 96.3
Cc1nc2cc3nc(-c4cccs4)cnc3cc2n1C | 101
CCN(CC)CCNC(=O)c1c(C)[nH]c(/C=C2\C(=O)Nc3ccc(F)cc32)c1C | 121
N#C/C(=C\c1ccc(O)c(O)c1)C(=O)NCc1ccccc1 | 86.6
O=C(NC(NC(=S)Nc1ccc(F)c([N+](=O)[O-])c1)C(Cl)(Cl)Cl)C(c1ccccc1)c1ccccc1 (stereo not shown) | 95.4
Ic1cccc(CSc2nnc(-c3ccncc3)o2)c1 | 97.3
O=C1C(Cl)=C(N2C(=O)CCC2=O)C(=O)c2ccccc21 | 99.3
COc1cc2ncnc(Nc3ccc(O)c(Br)c3)c2cc1OC | 93.7
CCN(CC)C(=O)c1ccc(Nc2nc(OCC3CCCCC3)c3[nH]cnc3n2)cc1 | 87.4

Set 4
Cell line: A-375
Concentration: 100 µM
Time: 18 h
Structure (SMILES) | viability
CC[C@H]1OC(=O)[C@H](C)[C@@H](O[C@H]2C[C@@](C)(OC)[C@@H](O)[C@H](C)O2)[C@H](C)[C@@H](O[C@@H]2O[C@H](C)C[C@H](N(C)C)[C@H]2O)[C@](C)(O)C[C@@H](C)C(=O)[C@H](C)[C@@H](O)[C@]1(C)O | 94.4%
COc1c(N2CCNC(C)C2)c(F)cc2c(=O)c(C(=O)O)cn(C3CC3)c12 (stereo not shown) | 57.9%
Nc1cccc2c1C(=O)N(C1CCC(=O)NC1=O)C2=O (stereo not shown) | 108%
CCOC(=O)C(C)(C)Oc1ccc(Cl)cc1 | 50.5%
CCN1CCN(c2cc(-c3ccc(F)cc3)c3c(n2)CCCCCC3)CC1 | 52.9%
[H]/N=C(/N)NS(=O)(=O)c1ccc(N)cc1 | 96.7%
Cc1ccc(C(=O)Nc2ccc(S(=O)(=O)O)c3cc(S(=O)(=O)O)cc(S(=O)(=O)O)c23)cc1NC(=O)c1cccc(NC(=O)Nc2cccc(C(=O)Nc3cc(C(=O)Nc4ccc(S(=O)(=O)O)c5cc(S(=O)(=O)O)cc(S(=O)(=O)O)c45)ccc3C)c2)c1 | 104%
CO[C@H]1C[C@@H]2CC[C@@H](C)[C@@](O)(O2)C(=O)C(=O)N2CCCC[C@H]2C(=O)O[C@H]([C@H](C)C[C@@H]2CC[C@@H](OC(=O)C(C)(CO)CO)[C@H](OC)C2)CC(=O)[C@H](C)/C=C(\C)[C@@H](O)[C@@H](OC)C(=O)[C@H](C)C[C@H](C)/C=C/C=C/C=C/1C | 36.8%
Cc1c(CNCS(=O)(=O)O)c(=O)n(-c2ccccc2)n1C | 103%

Some of these lines once more (set 3):
SMILES | remaining activity [%]
CCN(CC)CCNC(=O)c1c(C)[nH]c(/C=C2\C(=O)Nc3ccc(F)cc32)c1C | 121
O=C1c2ccccc2-c2n[nH]c3cccc1c23 | 75
Cc1cc2ncc(-c3ccccc3)nc2cc1C | 102
O=c1cc(-c2cccc3c2Sc2ccccc2S3)oc(N2CCOCC2)c1 | 97.4
c1ccc(-c2cnc(Nc3ccc(OCCN4CCCC4)cc3)s2)cc1 | 90.8
Ic1cccc(CSc2nnc(-c3ccncc3)o2)c1 | 97.3
CN(C)C[C@H]1CCn2c(c(C3=C(c4cn(C)c5ccccc45)C(=O)NC3=O)c3ccccc32)C1 | 98.9
O=C(NC(NC(=S)Nc1ccc(F)c([N+](=O)[O-])c1)C(Cl)(Cl)Cl)C(c1ccccc1)c1ccccc1 (stereo not shown) | 95.4
